Measured values gathered from unrelated publications.
Parts stem from different laboratories: compare values within a part only.

Block 1 — technique: protein-binding microarray; molecule type: hairpin DNA; sample: in vitro; tested at: not given; baseline: not given; direction: higher = stronger binding; endpoint: median fluorescence; shared flanks, not repeated: GCAGGCC … GGCCTGCACACTCTTTCCCTACACGAC
Target: Transcription factor SOX-2, HMG box (SOX2, Homo sapiens, UniProt P48431, residues 37-118)
UniProt P48431, sequence (37-118, looked up): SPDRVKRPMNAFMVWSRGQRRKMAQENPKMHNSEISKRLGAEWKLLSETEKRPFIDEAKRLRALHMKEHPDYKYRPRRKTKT
Setting: whole hairpin DNA, median over replicate spots
CCGAATGGGCCTCCTGGCCCATTCGG (5mC at 9): 2530 a.u.
CACAAAGGGCCTCCTGGCCCTTTGTG: 2620 a.u.
CACAATGCGCCTCCTGGCGCATTGTG: 3050 a.u.
CACAACGGGCCTCCTGGCCCGTTGTG (5mC at 13): 2440 a.u.
CACGATGGGCCTCCTGGCCCATCGTG (5mC at 10): 2420 a.u.
CACAATGCGCCTCCTGGCGCATTGTG (5mC at 15): 3170 a.u.
CACCGTGGGCCTCCTGGCCCACGGTG (5mC at 11 29): 2460 a.u.
TACAATGGGCCTCCTGGCCCATTGTA: 3420 a.u.
CACACAGGGCCTCCTGGCCCTGTGTG: 2390 a.u.
CCTAATGGGCCTCCTGGCCCATTAGG: 2450 a.u.
CACAATCAGCCTCCTGGCTGATTGTG: 3110 a.u.
CACAATCGGCCTCCTGGCCGATTGTG (5mC at 14): 2770 a.u.
CACAATCGGCCTCCTGGCCGATTGTG (5mC at 26): 2760 a.u.

Block 2 — technique: protein binding microarray; molecule type: double-stranded DNA, one strand shown; sample: in vitro; tested at: not given; baseline: not given; direction: higher = stronger binding; endpoint: E-score
Target: Histone acetyltransferase KAT6A, winged helix 2, GST fusion (KAT6A, Homo sapiens, UniProt Q92794, residues 85-181)
Setting: 8-mer, flanks averaged, mean of 2 arrays, mostly near background
Construct (chain): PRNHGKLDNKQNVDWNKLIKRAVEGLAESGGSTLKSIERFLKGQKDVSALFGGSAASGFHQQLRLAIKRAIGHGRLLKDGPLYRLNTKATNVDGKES
GCCCCACA: 0.0966
ACGGGTTG: -0.0526
CGCCGCAC: 0.0943
GGACCGAC: 0.123
CCAAGCAC: -0.00717
CTCGCGCA: 0.0929
ATGCGCAA: -0.0508
TCGCTAGA: 0.0618
CTTGAAAG: -0.0513
ATGAATAG: -0.101
ACTACCTA: -0.255
CGATAACG: -0.222
ACGCAGCA: -0.0265
CGCCACTA: 0.0774
GATCGACA: -0.0194
ATAGTACA: -0.0803
AGAGTAGC: -0.049
AGGTGCAC: -0.111
CGTCGCTA: 0.0833
ACTACTAA: -0.2
CGGAGTAA: 0.0788

Block 3 — technique: universal PBM; molecule type: double-stranded DNA, one strand shown; sample: in vitro; tested at: 600 nM; direction: higher = stronger binding; endpoint: E-score
Target: Sal-like protein 4, full length isoform A (SALL4, Homo sapiens, UniProt Q9UJQ4, residues 1-1053)
UniProt Q9UJQ4, sequence (whole entry, looked up): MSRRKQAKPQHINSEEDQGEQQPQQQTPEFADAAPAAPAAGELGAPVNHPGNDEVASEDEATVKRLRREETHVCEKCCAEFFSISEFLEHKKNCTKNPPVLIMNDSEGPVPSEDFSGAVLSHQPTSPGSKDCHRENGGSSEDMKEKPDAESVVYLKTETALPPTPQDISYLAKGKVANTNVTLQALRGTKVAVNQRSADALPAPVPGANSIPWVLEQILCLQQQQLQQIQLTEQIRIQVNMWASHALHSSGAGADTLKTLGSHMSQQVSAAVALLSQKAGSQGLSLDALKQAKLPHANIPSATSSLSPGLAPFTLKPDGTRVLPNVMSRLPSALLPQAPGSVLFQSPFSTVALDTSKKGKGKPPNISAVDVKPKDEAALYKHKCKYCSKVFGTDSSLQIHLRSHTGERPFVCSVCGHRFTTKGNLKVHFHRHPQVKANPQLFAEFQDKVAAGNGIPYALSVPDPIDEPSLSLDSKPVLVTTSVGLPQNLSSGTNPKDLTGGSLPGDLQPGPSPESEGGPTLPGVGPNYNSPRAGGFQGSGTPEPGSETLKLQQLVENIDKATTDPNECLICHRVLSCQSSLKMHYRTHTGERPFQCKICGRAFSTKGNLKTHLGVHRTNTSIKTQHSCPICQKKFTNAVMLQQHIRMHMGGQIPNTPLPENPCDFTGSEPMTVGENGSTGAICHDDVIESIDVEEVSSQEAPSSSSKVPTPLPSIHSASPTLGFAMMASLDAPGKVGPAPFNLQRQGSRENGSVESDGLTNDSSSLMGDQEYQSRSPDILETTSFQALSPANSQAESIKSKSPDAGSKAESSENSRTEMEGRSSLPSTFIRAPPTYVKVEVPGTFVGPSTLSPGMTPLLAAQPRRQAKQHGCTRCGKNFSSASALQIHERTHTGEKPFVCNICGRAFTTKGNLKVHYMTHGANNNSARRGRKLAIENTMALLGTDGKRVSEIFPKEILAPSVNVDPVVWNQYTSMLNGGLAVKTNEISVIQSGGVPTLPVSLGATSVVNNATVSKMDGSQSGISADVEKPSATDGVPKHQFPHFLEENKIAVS
Setting: 8-mer, flanks averaged, mean of replicates
GAACCTCC: -0.202
GGGTGGGA: -0.151
AGTGGTTC: -0.0866
AGCGACAC: -0.0982
CCCCACTA: -0.296
AAGGAATT: 0.213
CCGCCTCC: -0.192
CGCCACCC: -0.299
CCTAGTAC: -0.00965
ATTGGCCA: -0.12
ATCCTATC: 0.151
ATTGATGG: 0.242
GAGCGTCC: -0.319
CTATAACA: 0.224
ACTTGGAC: -0.115
GCTATAGC: 0.0698
CCACGTGC: -0.257
CAGTAGTA: 0.0556

Block 4 — technique: RNA Bind-n-Seq; molecule type: RNA; sample: in vitro; tested at: 365 nM; baseline: no-protein control; direction: higher = stronger binding; endpoint: RBNS enrichment (R)
Target: RNA binding protein fox-1 homolog 2, RRM domain, GST-SBP tag (RBFOX2, Homo sapiens, UniProt O43251-10, residues 100-194)
Setting: natural RNA segment, single round, ends assumed
Shared flanks, not repeated: GGGAGUUCUACAGUCCGACGAUC … UGGAAUUCUCGGGUGCCAA
Construct (chain): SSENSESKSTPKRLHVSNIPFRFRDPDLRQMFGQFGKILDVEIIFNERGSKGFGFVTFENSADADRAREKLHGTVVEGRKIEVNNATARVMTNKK
CUCACCAGUGGACAAAUAAUAAGGCCUUUUUUUAUUAUUAUUUCUUGUCUUUUUUGAUCUAAUUUAUAUUUUAUAUUGUUGAAUUCUCCCUCCUUUGGCUUGUGGGAUCC: 1.38
AGCUGGUAGUUUGACCUCCGUUGGUGCAAUGCCAGAGAUGGGAUUGUCAGCCACCACACUGCCACCACCCUGCACACAGUCUGGGUCCCUCCGAGAGAAGCACGCCAACC: 9.13
UGUUUCCUAUUUAAUACAGCUGAAGUCAAAAUAUGUAAGAACACAUUUUAAAUACUCUACUUACAGUUGGCCCUCUGUGGUUAGUUCCACAUCUGUGGAUUCAACCAACC: 0.528
AAUGACUCCUUGGGUAUUAGAGUUUCAACCAUGAAGUCUCUAACAAUGUAUUUUCUUCACCUCUGCUACUCAAGUAGCAUUUACUGUGUCUUUGGUUUGUGCUAGGCCCC: 0.833
GCCCAGAGUUAAAGUUUCAGAAGAGACUUGUGCACAUAAGGGCUUCAUCUCAAGUGUAUUGCAGUAAUGGCUGAAUCGGGGUUAACAUCCCUUCCAGGCACAGCGAGUUG: 0.346
UUGCUCCUAAUGAUCAAAACCCCAAUUGCAACCAUGUGGCAAGUGGCCAGCUGAGCCCAGGUUACUUGGUACCCACUCUGCCUUGAGCCUUCCUUCCCCCAGGGCCUAUU: 0.863
UCUUCUCUCCAAAGUAAAAUUAGAUUAUUUAUAACUUCGAUCGCCUCGGCUAGGUUUCCAAGUCACUGAUUUCUGCUGAAGAUUUUACUACGUUGUUGCACAAUUUUAAG: 0.491
UCUGUCCCUUGUGAAAGCAUGGCAGCUUCAGGCCCAUCUGCGGGCAUGUGGCUGUUUUUCCUGGGAUUGACUCCUGAAAUGGAAUGAGCAAUAGUGUAGCUUUUCUACGG: 3.81
UCGCAGGGCAGGCUUGGUGCACUGGCUUCUCUCACAUCUUUCUUGCAAUUAUGAUACUCUGAGAUUUGCUGUUGUGCUUAAAGACAAAAGUCUGGACUCAGCCACAAACU: 0.586
AGCUUUCUGGGAUGUCACAGUCCAACCAGAAACACCCCUCUGUCUAGGACUGCAGUGUGGAGUUCACCUUGGAAGGGCGUUCUAGGUAGGAAGAGCCCGCAGGGCCAUGC: 0.297
CCAAAGGACCCCUCGACUGGCCACAGCCCAGCCCAGCCUGACGUGGAUGUGGCUGCCCAGGAAAAGACUUAACUGUGAAAAAGUACUGAGAACCCACCUGACCCAGGCUU: 0.612
UUUUUAUUUAUUUUUUGUUAGGAAUUGGCCAAGAUCGCUAUGGAAAAAAUAAAAGAACAAACACAUAAAAAGGCUGAAGUCUCUCUUCCUUUUUCCCUUCCCUAUUUGUG: 1.49

Block 5 — technique: protein-binding microarray; molecule type: double-stranded DNA, one strand shown; sample: in vitro; tested at: 940 nM top; setting: 60-bp whole probe; together with: salmon DNA 0.4 mg/ml; baseline: random background probes; direction: higher = stronger binding; endpoint: fitted relative affinity; shared flanks, not repeated: GCCTAGCAC … GTCTTGATTCGCTTGACGCTGCTG
Target: Interferon regulatory factor 5, full length, phosphomimetic (IRF5, Homo sapiens, UniProt Q13568-2, residues 1-514, S451D/S453D/S456D/S462D)
GACGGTCTCGGATTCGGGACGTGCTAG: 1.14 z-score
GACGTACTGAGTCTCGAGACGTGCTAG: 0.784 z-score
ACTCATTTTCGTTTTGTGTCGTGCTAG: 2.69 z-score
TCAGAATTTACTTTCTAACTGTGCTAG: 0.323 z-score
TTAGATATCGGTTTCGATTAGTGCTAG: 7.69 z-score
CTGCCTGTCCATTCCTTCCAGTGCTAG: 0.67 z-score
TTTTCATTTTTTTTCATCATGTGCTAG: 2.43 z-score
GAAGGTCTCGGTATCGGGACGTGCTAG: 3.96 z-score
GACGGACTAGGGTTTCGGGACGTGCTA: 1.07 z-score
GACGGGCTGCTTCTCCTGACGTGCTAG: -0.505 z-score
TCAGCTCTTATATACCTGACTGTGCTA: 0.63 z-score
AACGAACTGAGTTTCGAGACGTGCTAG: 3.25 z-score
GCCATTTTCCCTCCCTAATTGTGCTAG: 1.29 z-score
GACGAGCTGAGTATCGAGACGTGCTAG: 1.88 z-score
TCAGATTACATATATGTTACTGTGCTA: -0.345 z-score
GACGATATCAGACTAGAGACGTGCTAG: -0.415 z-score
CTTTAACTCATTTTCATTTTGTGCTAG: 1.6 z-score
CTAGGACTGGACTATCGGTTAGTGCTA: -0.00817 z-score
TTAGGTATCGGGACTGGGTTGGTGCTA: 4.24 z-score
GACGGTACCCTTTTCCTGACGTGCTAG: 0.315 z-score
GACGGTTTCCTCTTCCTGACGTGCTAG: 1.48 z-score
TTAGATCTCAGTCCCGATTAGTGCTAG: 0.327 z-score
GACGAAGTGAGTATCGAGACGTGCTAG: 1.88 z-score
TTAGGTATCGGCACTGGGTTAGTGCTA: 4.13 z-score

A few entries again (block 1):
CACAATGCGCCTCCTGGCGCATTGTG: 3050 a.u.
CACAACGGGCCTCCTGGCCCGTTGTG (5mC at 13): 2440 a.u.
CACGATGGGCCTCCTGGCCCATCGTG (5mC at 10): 2420 a.u.
CACAATGCGCCTCCTGGCGCATTGTG (5mC at 15): 3170 a.u.
CACCGTGGGCCTCCTGGCCCACGGTG (5mC at 11 29): 2460 a.u.
TACAATGGGCCTCCTGGCCCATTGTA: 3420 a.u.
CACACAGGGCCTCCTGGCCCTGTGTG: 2390 a.u.
CCTAATGGGCCTCCTGGCCCATTAGG: 2450 a.u.
